Measured values collected from several papers.
Cell line: Ramos

CCN(C(=O)c1cc(F)ccc1Oc1nncnc1N1CCC2(C1)CN([C@H](CCCN(C)CCOC)C(C)C)C2)C(C)C
GI50 (cell growth or viability; 7 days): > 10000 nM

C=CC(=O)N1CCC[C@@H](c2ccc(C(N)=O)c3[nH]ccc23)C1
IC50 (IP1 production, HTRF; 4 h, together with: anti-IgM): > 1000 nM

CCOc1cncc(-c2ccc(NC(=O)C3(c4ccnc(NS(=O)(=O)C5CC5)n4)CCOCC3)nc2)n1
IC50 (cell growth or viability, ATP luminescence; 72 h): 28 nM

NC(=O)c1ccc(-c2ccccc2Cl)c2c3c([nH]c12)CC[C@H](N)C3
IC50 (cell growth or viability): 20 nM

C=CC(=O)N1CCC[C@@H](n2nc(-c3ccc(Oc4ccccc4)cc3)c3c(N)ncnc32)C1
IC50 (IP1 production, HTRF; 4 h, together with: anti-IgM): 1.72 nM

CNS(=O)(=O)Nc1nccc(Cc2c(C)c3ccc(Oc4ncccc4F)cc3oc2=O)c1F
IC50 (cell viability; 7 days): > 1000 nM

CN1CCC(N[C@H]2CCc3[nH]c4c(C(N)=O)ccc(-c5ccccc5Cl)c4c3C2)CC1
IC50 (cell growth or viability): 351 nM

C[C@H]1CN(C2COC2)CCN1c1ccc(Nc2cc(-c3ccnc(N4CCn5c(cc6c5CC(C)(C)C6)C4=O)c3CO)cn(C)c2=O)nc1
IC50 (IP1 production, HTRF; 4 h, together with: anti-IgM): 111 nM

CC(C)=CC1OC(C)(C)C2C=C3C(=O)C(Cl)=CC(O)C3C3C(O)C4OC4C(=O)C132 (stereo not drawn)
IC50 (cell growth or viability, MTS): 2020 nM

A few entries again:
CCOc1cncc(-c2ccc(NC(=O)C3(c4ccnc(NS(=O)(=O)C5CC5)n4)CCOCC3)nc2)n1
IC50 (cell growth or viability, ATP luminescence; 72 h): 28 nM
